Measurements pooled from the literature.
Each line is one published result; not all experiments were run side by side. ± marks the error that the study gave.

N=C(N)NCCC[C@@H]1NC(=O)[C@H](CCCCNC(=O)c2ccc(CNC34CNCCNCC(NCc5ccc(C(=O)NCCCC[C@@H]6NC(=O)[C@@H](Cc7ccc(O)cc7)NC(=O)[C@H](CC(=O)O)NC(=O)CNC(=O)[C@H](CCCNC(=N)N)NC6=O)cc5)(CNCCNC3)CNCCNC4)cc2)NC(=O)[C@@H](Cc2ccc(O)cc2)NC(=O)[C@H](CC(=O)O)NC(=O)CNC1=O [copper-64 labelled] — tumour uptake (microPET; female athymic nude mouse, U-87 MG xenograft, U-87 MG tumour; intravenous, 4 h, with: c(RGDyK) 10 mg/kg blocking): 0.29 ± 0.05 %ID/g
N=C(N)NCCC[C@@H]1NC(=O)[C@H](CCCCNC(=O)CNC(=O)CNC(=O)CNC(=O)CC[C@H](NC(=O)CCOCCOCCOCCOCCNC(=O)CC[C@H](NC(=O)CN2CCN(CC(=O)O)CCN(CC(=O)O)CCN(CC(=O)O)CC2)C(=O)NCCOCCOCCOCCOCCC(=O)N[C@@H](CCC(=O)NCC(=O)NCC(=O)NCC(=O)NCCCC[C@@H]2NC(=O)[C@@H](Cc3ccccc3)NC(=O)[C@H](CC(=O)O)NC(=O)CNC(=O)[C@H](CCCNC(=N)N)NC2=O)C(=O)NCC(=O)NCC(=O)NCC(=O)NCCCC[C@@H]2NC(=O)[C@@H](Cc3ccccc3)NC(=O)[C@H](CC(=O)O)NC(=O)CNC(=O)[C@H](CCCNC(=N)N)NC2=O)C(=O)NCC(=O)NCC(=O)NCC(=O)NCCCC[C@@H]2NC(=O)[C@@H](Cc3ccccc3)NC(=O)[C@H](CC(=O)O)NC(=O)CNC(=O)[C@H](CCCNC(=N)N)NC2=O)NC(=O)[C@@H](Cc2ccccc2)NC(=O)[C@H](CC(=O)O)NC(=O)CNC1=O [indium-111 labelled] — tumour to bone ratio (female athymic nude mouse; intravenous, 1 h, U-87 MG glioma xenograft; reference: tumour over bone): 5.8 ± 0.65
N=C(N)NCCC[C@@H]1NC(=O)[C@H](CCCCNC(=O)CNC(=O)CNC(=O)CNC(=O)CC[C@H](NC(=O)c2ccc(NN=Cc3ccccc3S(=O)(=O)O)nc2)C(=O)NCC(=O)NCC(=O)NCC(=O)NCCCC[C@@H]2NC(=O)[C@@H](Cc3ccccc3)NC(=O)[C@H](CC(=O)O)NC(=O)CNC(=O)[C@H](CCCNC(=N)N)NC2=O)NC(=O)[C@@H](Cc2ccccc2)NC(=O)[C@H](CC(=O)O)NC(=O)CNC1=O [technetium-99m labelled] — tumour to tissue ratio (athymic nu/nu mouse, female, U-87 MG glioma xenograft; intravenous, 30 min; reference: tumour over blood): 9.19 ± 1.79
CC(C)C[C@H](NC(=O)C[C@H](O)[C@H](CC(C)C)NC(=O)[C@H](Cc1c[nH]cn1)NC(=O)CNC(=O)[C@@H](NC(=O)[C@H](C)NC(=O)[C@H](Cc1c[nH]c2ccccc12)NC(=O)[C@H](CCC(N)=O)NC(=O)[C@@H](Cc1ccccc1)NC(=O)c1ccc(NC(=O)CNC(=O)CCC(C(=O)O)N2CCN(CC(=O)O)CCN(CC(=O)O)CC2)cc1)C(C)C)C(N)=O (stereo partly drawn) [fluorine-18 labelled] — tumour uptake (PET imaging; mouse, PC-3 xenograft; intravenous, 1 h, 18F-labelled): 4 ± 0.87 %ID/g
N=C(N)NCCC[C@@H]1NC(=O)[C@H](CCCCNC(=O)CNC(=O)CNC(=O)CNC(=O)c2ccc(NN=Cc3ccccc3S(=O)(=O)O)nc2)NC(=O)[C@@H](Cc2ccccc2)NC(=O)[C@H](CC(=O)O)NC(=O)CNC1=O [technetium-99m labelled] — tumour to tissue ratio (athymic nu/nu mouse, female, U-87 MG glioma xenograft; intravenous, 30 min; reference: tumour over blood): 4.42 ± 0.4
N=C(N)NCCC[C@@H]1NC(=O)[C@H](CCCCNC(=O)CCOCCOCCOCCOCCNC(=O)CC[C@H](NC(=O)CCOCCOCCOCCOCCNC(=O)CC[C@H](NC(=O)CN2CCN(CC(=O)O)CCN(CC(=O)O)CCN(CC(=O)O)CC2)C(=O)NCCOCCOCCOCCOCCC(=O)N[C@@H](CCC(=O)NCCOCCOCCOCCOCCC(=O)NCCCC[C@@H]2NC(=O)[C@@H](Cc3ccccc3)NC(=O)[C@H](CC(=O)O)NC(=O)CNC(=O)[C@H](CCCNC(=N)N)NC2=O)C(=O)NCCOCCOCCOCCOCCC(=O)NCCCC[C@@H]2NC(=O)[C@@H](Cc3ccccc3)NC(=O)[C@H](CC(=O)O)NC(=O)CNC(=O)[C@H](CCCNC(=N)N)NC2=O)C(=O)NCCOCCOCCOCCOCCC(=O)NCCCC[C@@H]2NC(=O)[C@@H](Cc3ccccc3)NC(=O)[C@H](CC(=O)O)NC(=O)CNC(=O)[C@H](CCCNC(=N)N)NC2=O)NC(=O)[C@@H](Cc2ccccc2)NC(=O)[C@H](CC(=O)O)NC(=O)CNC1=O [indium-111 labelled] — tumour to muscle ratio (female athymic nude mouse; intravenous, 3 µCi, 24 h, U-87 MG glioma xenograft; reference: tumour over muscle): 13.1 ± 2.85
C[C@@H]1NC(=O)[C@H](CCC(=O)O)NC(=O)CNC(=O)[C@H](CC(=O)O)NC(=O)CNC(=O)[C@H](CCCCNC(=O)CCCCCNC(=O)[C@H](CS)NC(=O)CCCCCNC(=O)CN2CCN(CC(=O)O)CCN(CC(=O)O)CCN(CC(=O)O)CC2)NC(=O)[C@@H](Cc2ccc(O)cc2)NC1=O [gallium-68 labelled] — tumour to lung ratio (mouse, orthotopic A549; 10 min): 1.52
N=C(N)NCCC[C@@H]1NC(=O)[C@H](CCCCNC(=O)CC[C@H](NC(=O)CCOCCOCCOCCOCCNC(=O)CC[C@H](NC(=O)CN2CCN(CC(=O)O)CCN(CC(=O)O)CCN(CC(=O)O)CC2)C(=O)NCCOCCOCCOCCOCCC(=O)N[C@@H](CCC(=O)NCCCC[C@@H]2NC(=O)[C@@H](Cc3ccccc3)NC(=O)[C@H](CC(=O)O)NC(=O)CNC(=O)[C@H](CCCNC(=N)N)NC2=O)C(=O)NCCCC[C@@H]2NC(=O)[C@@H](Cc3ccccc3)NC(=O)[C@H](CC(=O)O)NC(=O)CNC(=O)[C@H](CCCNC(=N)N)NC2=O)C(=O)NCCCC[C@@H]2NC(=O)[C@@H](Cc3ccccc3)NC(=O)[C@H](CC(=O)O)NC(=O)CNC(=O)[C@H](CCCNC(=N)N)NC2=O)NC(=O)[C@@H](Cc2ccccc2)NC(=O)[C@H](CC(=O)O)NC(=O)CNC1=O [indium-111 labelled] — tumour to muscle ratio (female athymic nude mouse; intravenous, 3 µCi, 4 h, U-87 MG glioma xenograft; reference: tumour over muscle): 11.8 ± 7.36
CC(C)C[C@H](NC(=O)[C@@H]1CCCN1C(=O)[C@H](CCCCN)NC(=O)[C@@H](N)CO)C(=O)N1CCC[C@H]1C(=O)N[C@@H](CCC(=O)O)C(=O)N[C@H](C(=O)N[C@H](C(=O)N[C@@H](CC(=O)O)C(=O)N[C@@H](CCC(=O)O)C(=O)N[C@@H](Cc1ccc(O)cc1)C(=O)N[C@@H](Cc1cn(CCOCCOCCOCCNC(=O)CCc2ccc(O)c(CN(CCN(CC(=O)O)Cc3cc(CCC(=O)NCCCC[C@H](NC(=O)N[C@@H](CCC(=O)O)C(=O)O)C(=O)O)ccc3O)CC(=O)O)c2)nn1)C(=O)O)[C@@H](C)O)C(C)C [gallium-68 labelled] — tumour SUVmax (PET; NMRI nu/nu mouse, LNCaP xenograft; 60 to 120 min, with: unlabelled PSMA PLT-TM 86 nmol/animal): 0.06 g/mL

For quick reference, copied from above:
C[C@@H]1NC(=O)[C@H](CCC(=O)O)NC(=O)CNC(=O)[C@H](CC(=O)O)NC(=O)CNC(=O)[C@H](CCCCNC(=O)CCCCCNC(=O)[C@H](CS)NC(=O)CCCCCNC(=O)CN2CCN(CC(=O)O)CCN(CC(=O)O)CCN(CC(=O)O)CC2)NC(=O)[C@@H](Cc2ccc(O)cc2)NC1=O [gallium-68 labelled] — tumour to lung ratio (mouse, orthotopic A549; 10 min): 1.52
